Assay results gathered from unrelated publications.
Parts stem from different laboratories: compare values within a part only.
UniProt P52333, sequence (whole entry, looked up): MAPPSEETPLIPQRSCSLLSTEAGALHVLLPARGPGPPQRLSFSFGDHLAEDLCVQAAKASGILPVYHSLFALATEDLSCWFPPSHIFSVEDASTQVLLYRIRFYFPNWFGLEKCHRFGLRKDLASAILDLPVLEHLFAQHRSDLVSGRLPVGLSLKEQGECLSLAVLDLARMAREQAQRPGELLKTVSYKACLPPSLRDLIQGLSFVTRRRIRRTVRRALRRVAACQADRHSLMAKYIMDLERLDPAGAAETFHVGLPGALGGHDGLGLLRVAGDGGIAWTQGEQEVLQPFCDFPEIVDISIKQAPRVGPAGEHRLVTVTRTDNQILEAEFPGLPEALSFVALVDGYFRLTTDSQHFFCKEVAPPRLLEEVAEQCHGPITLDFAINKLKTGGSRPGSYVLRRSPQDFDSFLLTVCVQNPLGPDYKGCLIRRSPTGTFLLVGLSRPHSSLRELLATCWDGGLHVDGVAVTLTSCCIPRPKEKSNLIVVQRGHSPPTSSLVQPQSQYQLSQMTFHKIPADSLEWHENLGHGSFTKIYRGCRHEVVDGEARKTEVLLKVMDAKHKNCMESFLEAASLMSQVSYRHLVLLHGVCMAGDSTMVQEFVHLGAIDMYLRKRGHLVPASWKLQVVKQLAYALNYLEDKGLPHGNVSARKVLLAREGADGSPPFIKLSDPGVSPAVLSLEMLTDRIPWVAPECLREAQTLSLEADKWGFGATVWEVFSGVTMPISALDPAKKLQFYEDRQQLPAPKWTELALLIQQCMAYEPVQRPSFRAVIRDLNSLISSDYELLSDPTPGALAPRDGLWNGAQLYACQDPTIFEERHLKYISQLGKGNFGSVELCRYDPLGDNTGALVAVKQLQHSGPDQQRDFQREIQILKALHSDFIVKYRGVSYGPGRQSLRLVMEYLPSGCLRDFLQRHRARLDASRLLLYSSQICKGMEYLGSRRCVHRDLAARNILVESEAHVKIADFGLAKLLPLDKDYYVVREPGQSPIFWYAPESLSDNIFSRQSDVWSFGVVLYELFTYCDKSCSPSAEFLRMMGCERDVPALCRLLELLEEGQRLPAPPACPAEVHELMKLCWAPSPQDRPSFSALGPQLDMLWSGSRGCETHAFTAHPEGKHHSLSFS
UniProt O14965, sequence (whole entry, looked up): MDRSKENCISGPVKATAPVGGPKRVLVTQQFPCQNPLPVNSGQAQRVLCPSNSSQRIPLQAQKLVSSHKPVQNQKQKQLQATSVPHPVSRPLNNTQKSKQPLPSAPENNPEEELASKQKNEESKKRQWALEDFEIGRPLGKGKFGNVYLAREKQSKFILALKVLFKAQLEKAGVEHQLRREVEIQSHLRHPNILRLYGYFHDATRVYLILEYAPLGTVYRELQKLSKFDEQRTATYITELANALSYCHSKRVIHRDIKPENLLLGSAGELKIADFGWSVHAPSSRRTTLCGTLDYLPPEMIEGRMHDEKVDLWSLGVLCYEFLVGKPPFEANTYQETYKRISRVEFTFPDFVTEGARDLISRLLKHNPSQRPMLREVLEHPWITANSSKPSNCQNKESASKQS
UniProt Q9BUB5, sequence (whole entry, looked up): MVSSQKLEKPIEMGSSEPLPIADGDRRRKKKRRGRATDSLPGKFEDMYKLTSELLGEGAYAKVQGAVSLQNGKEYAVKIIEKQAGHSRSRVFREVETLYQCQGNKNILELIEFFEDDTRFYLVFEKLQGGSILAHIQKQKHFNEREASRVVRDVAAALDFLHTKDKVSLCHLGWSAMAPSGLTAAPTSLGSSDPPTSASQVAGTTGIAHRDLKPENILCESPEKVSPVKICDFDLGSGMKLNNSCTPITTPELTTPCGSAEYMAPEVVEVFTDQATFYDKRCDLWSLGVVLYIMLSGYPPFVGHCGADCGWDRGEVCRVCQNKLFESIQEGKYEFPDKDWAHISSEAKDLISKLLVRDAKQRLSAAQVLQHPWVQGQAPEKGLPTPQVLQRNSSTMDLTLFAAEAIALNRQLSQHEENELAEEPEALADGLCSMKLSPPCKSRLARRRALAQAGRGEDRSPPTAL
UniProt Q8N568, sequence (whole entry, looked up): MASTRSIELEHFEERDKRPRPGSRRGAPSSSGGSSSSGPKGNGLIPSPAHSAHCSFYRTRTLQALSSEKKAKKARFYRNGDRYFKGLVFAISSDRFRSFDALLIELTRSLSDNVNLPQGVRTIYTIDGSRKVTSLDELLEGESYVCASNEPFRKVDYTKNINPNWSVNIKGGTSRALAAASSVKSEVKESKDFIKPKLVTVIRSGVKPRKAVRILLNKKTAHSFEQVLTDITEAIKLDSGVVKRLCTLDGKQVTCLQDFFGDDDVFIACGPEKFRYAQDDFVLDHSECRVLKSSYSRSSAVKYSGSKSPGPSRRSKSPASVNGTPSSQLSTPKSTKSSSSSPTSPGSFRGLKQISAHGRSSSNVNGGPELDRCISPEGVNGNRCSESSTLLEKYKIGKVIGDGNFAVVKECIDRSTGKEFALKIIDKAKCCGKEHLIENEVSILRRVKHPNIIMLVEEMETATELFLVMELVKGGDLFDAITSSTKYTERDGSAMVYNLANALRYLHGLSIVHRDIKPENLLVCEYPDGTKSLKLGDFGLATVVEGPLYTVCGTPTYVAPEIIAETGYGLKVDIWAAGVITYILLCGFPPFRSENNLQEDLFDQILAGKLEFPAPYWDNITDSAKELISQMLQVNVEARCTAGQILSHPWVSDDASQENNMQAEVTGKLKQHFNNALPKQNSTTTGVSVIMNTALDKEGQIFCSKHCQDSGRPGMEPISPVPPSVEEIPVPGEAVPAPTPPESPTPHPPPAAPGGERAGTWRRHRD
UniProt P19525, sequence (whole entry, looked up): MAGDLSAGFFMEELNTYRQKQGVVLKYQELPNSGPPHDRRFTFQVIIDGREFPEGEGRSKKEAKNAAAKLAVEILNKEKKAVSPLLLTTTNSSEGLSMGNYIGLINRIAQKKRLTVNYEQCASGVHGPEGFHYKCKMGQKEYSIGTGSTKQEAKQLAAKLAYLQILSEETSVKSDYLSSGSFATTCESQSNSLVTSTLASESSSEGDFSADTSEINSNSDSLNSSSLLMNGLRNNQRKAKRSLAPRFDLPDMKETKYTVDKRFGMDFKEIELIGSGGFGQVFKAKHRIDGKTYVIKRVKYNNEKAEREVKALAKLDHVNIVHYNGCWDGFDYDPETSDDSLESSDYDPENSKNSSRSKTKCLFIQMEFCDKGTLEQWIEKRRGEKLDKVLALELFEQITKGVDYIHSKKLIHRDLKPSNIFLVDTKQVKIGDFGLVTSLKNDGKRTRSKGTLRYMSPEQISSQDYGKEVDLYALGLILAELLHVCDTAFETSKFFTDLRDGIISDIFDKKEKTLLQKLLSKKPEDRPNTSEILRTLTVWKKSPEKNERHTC

Series 1
Compound: CC(=O)c1c(NS(C)(=O)=O)c2cc(-c3ccc(Cl)cc3)c(-c3ccc(Cl)cc3Cl)nc2n(C)c1=O
Tested at: 1 µM
target	assay	remaining binding [%]
FLT3 (Homo sapiens, UniProt P36888, D835V)	cell-free assay, competition with immobilised ligand	89
ROCK2 (Homo sapiens, UniProt O75116)	cell-free assay, competition with immobilised ligand	100
Tyrosine-protein kinase JAK3, JH1 (JAK3, Homo sapiens, UniProt P52333)	cell-free assay, competition with immobilised ligand	100
Tyrosine-protein kinase ABL1, phosphorylated (ABL1, Homo sapiens, UniProt P00519, Y253F)	cell-free assay, competition with immobilised ligand	94
CAMK2D (Homo sapiens, UniProt Q13557)	cell-free assay, competition with immobilised ligand	100
PRKG2 (Homo sapiens, UniProt Q13237)	cell-free assay, competition with immobilised ligand	100
STK38L (Homo sapiens, UniProt Q9Y2H1)	cell-free assay, competition with immobilised ligand	76
BMPR1A (Homo sapiens, UniProt P36894)	cell-free assay, competition with immobilised ligand	95
GAK (Homo sapiens, UniProt O14976)	cell-free assay, competition with immobilised ligand	100
EPHA1 (Homo sapiens, UniProt P21709)	cell-free assay, competition with immobilised ligand	100
SIK1 (Homo sapiens, UniProt P57059)	competition binding	100
IRAK3 (Homo sapiens, UniProt Q9Y616)	cell-free assay, competition with immobilised ligand	100
PKN2 (Homo sapiens, UniProt Q16513)	cell-free assay, competition with immobilised ligand	76
Aurora kinase A (AURKA, Homo sapiens, UniProt O14965)	cell-free assay, competition with immobilised ligand	87
RET (Homo sapiens, UniProt P07949, M918T)	cell-free assay, competition with immobilised ligand	100
DCLK2 (Homo sapiens, UniProt Q8N568)	cell-free assay, competition with immobilised ligand	96
EGFR (Homo sapiens, UniProt P00533, L858R/T790M)	cell-free assay, competition with immobilised ligand	89
IKBKE (Homo sapiens, UniProt Q14164)	cell-free assay, competition with immobilised ligand	73
MAP2K6 (Homo sapiens, UniProt P52564)	cell-free assay, competition with immobilised ligand	100
Tyrosine-protein kinase ABL1, phosphorylated (ABL1, Homo sapiens, UniProt P00519)	cell-free assay, competition with immobilised ligand	92
EIF2AK2 (Homo sapiens, UniProt P19525)	cell-free assay, competition with immobilised ligand	100
ACVR2A (Homo sapiens, UniProt P27037)	cell-free assay, competition with immobilised ligand	100
Macrophage colony-stimulating factor 1 receptor, autoinhibited (CSF1R, Homo sapiens, UniProt P07333)	cell-free assay, competition with immobilised ligand	100
MKNK1 (Homo sapiens, UniProt Q9BUB5)	cell-free assay, competition with immobilised ligand	100
TNNI3K (Homo sapiens, UniProt Q59H18)	cell-free assay, competition with immobilised ligand	100

Series 2
Target: Eukaryotic initiation factor 4A-I (EIF4A1, Homo sapiens, UniProt P60842)
UniProt P60842, sequence (whole entry, looked up): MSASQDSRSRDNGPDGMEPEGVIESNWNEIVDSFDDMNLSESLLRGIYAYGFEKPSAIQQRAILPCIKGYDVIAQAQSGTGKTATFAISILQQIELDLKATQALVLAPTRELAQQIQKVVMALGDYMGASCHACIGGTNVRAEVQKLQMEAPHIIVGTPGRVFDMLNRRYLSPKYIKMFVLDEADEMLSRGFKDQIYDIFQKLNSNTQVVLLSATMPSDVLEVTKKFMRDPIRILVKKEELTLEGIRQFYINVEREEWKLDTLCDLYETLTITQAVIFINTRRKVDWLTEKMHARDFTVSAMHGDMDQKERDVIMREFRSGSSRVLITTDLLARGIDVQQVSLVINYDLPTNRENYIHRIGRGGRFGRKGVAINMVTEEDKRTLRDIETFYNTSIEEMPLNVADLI
Observed: RNA clamping
Technique: fluorescence polarization
Tested at: concentration not given
Notes: mean of two replicates
Added: FAM-labelled poly r(AG)8 RNA
Structure (SMILES)	fluorescence polarization change [mP]
COc1ccc([C@]23Oc4cc(OC)cc(OC)c4[C@](O)([C@H]2O)[C@@H](C(=O)N(C)OC)[C@@H]3c2ccccc2)cc1	8.3
COC(=O)[C@H]1[C@@H](O)[C@@]2(O)c3c(F)cccc3N(C)[C@@]2(c2ccc(OC)cc2)[C@@H]1c1ccccc1	3.6
CONC(=O)[C@H]1[C@@H](O)[C@@]2(O)c3c(OC)cc(O)cc3O[C@@]2(c2ccc(Br)cc2)[C@@H]1c1ccccc1	67.5
C#CCCC1(CCOc2ccc([C@@H]3[C@@H](C(=O)c4ccco4)[C@@H](O)[C@@]4(O)c5c(OC)cc(OC)cc5O[C@@]34c3ccc(OC)cc3)cc2)N=N1	0.9
COC(=O)/C=C/n1c(-c2ccccc2)nc2c(c1=O)[C@@H](c1ccccc1)[C@]1(c3ccc(OC)cc3)Oc3cc(OC)cc(OC)c3[C@]21O	10.5
COc1ccc([C@@]23Oc4cc(OC)cc(OC)c4[C@]2(O)[C@H](O)[C@H](C(=O)c2ccco2)[C@H]3c2ccc(Br)cc2)cc1	6.3
C#CCNC(=O)/C=C/Cn1c(-c2ccccc2)nc2c(c1=O)[C@@H](c1ccccc1)[C@]1(c3ccc(OC)cc3)Oc3cc(OC)cc(OC)c3[C@]21O	23.6
COc1ccc([C@@]23Oc4cc(OC)cc(OC)c4[C@]2(O)c2[nH]nc(O)c2[C@H]3c2ccccc2)cc1	37.1
COC(=O)[C@@H]1[C@@H](c2ccccc2)[C@]2(c3ccc(OC)cc3)Oc3cc(OC)cc(OC)c3[C@@]23NC(c2csc(C)n2)=N[C@@]13O	38.3
COc1ccc([C@@]23Oc4cc(O)cc(OC)c4[C@]2(O)[C@H](O)[C@H](C(=O)c2ccco2)[C@H]3c2ccccc2)cc1	11.2
C#CCOc1nc(-c2ccccc2)nc2c1[C@@H](c1ccccc1)[C@]1(c3ccc(OC)cc3)Oc3cc(OCC(=O)OCC)cc(OC)c3[C@]21OCC(=O)OCC	-5.9
COc1ccc([C@@]23Oc4cc(OC)cc(OC)c4[C@]2(O)[C@H](O)[C@H](C(=O)c2ccco2)[C@H]3c2cccc(OC)c2)cc1	26.1
COC(=O)[C@H]1C(=O)[C@@]2(NCCN3CCOCC3)c3c(OC)cc(OC)cc3O[C@@]2(c2ccc(OC)cc2)[C@@H]1c1ccccc1	15.9
COc1ccc([C@H]2[C@H](C(=O)N(C)C)[C@@H](O)[C@@]3(O)c4c(OC)cc(OC)cc4O[C@@]23c2ccc(OC)cc2)cc1	4.3
COC(=O)CCCn1c(-c2ccccc2)nc2c(c1=O)[C@@H](c1ccccc1)[C@]1(c3ccc(OC)cc3)Oc3cc(OC)cc(OC)c3[C@]21O	25.8

Series 3
Target: Beta-1 adrenergic receptor (ADRB1, Homo sapiens, UniProt P08588)
UniProt P08588, sequence (whole entry, looked up): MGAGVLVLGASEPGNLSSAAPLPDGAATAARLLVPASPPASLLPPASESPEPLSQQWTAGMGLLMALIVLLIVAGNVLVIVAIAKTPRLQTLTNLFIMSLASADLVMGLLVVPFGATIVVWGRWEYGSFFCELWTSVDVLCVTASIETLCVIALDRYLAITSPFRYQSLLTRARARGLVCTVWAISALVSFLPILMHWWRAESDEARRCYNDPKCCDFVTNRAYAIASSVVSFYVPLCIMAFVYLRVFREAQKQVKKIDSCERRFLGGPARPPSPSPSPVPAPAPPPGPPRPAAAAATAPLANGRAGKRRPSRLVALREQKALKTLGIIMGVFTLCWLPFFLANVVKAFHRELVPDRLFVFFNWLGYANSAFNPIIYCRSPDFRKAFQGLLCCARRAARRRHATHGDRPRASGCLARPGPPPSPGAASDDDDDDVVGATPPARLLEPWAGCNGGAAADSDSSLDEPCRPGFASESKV
Action: agonist
Compound	EC50 [µM]
COCCCNc1ncccc1-c1cc(-c2ccccc2)nc2c(C)noc12	≥ 100
CN(C)c1cccc(-c2nccc3c(=O)cc(N4CCOCC4)oc23)c1	≥ 100
CCOc1ccccc1N1CCN([S+](=O)([O-])c2cc(OC)ccc2OC)CC1	≥ 100
Cc1cc(=O)oc2cc(OCC(=O)NC3CCCc4c3[nH]c3ccccc43)ccc12 (centres unmarked)	≥ 100
O=c1[nH]c2ccccc2n1C1CCN(CCOc2ccc(F)cc2)CC1	≥ 100
CC(C)(C)NCC(O)COc1cc(Cl)ccc1Cl (centres unmarked)	≥ 100
O=C(c1cc(-c2cccnc2)nc2ccccc12)N1CCCC2(CCOC2)C1 (centres unmarked)	≥ 100
COc1ccccc1N1CCN(CC(=O)N2CCCC2c2ccc3c(c2)OCCO3)CC1 (centres unmarked)	≥ 100
Fc1ccc(NC(=S)N[C@H]2CO[C@H]3[C@@H]2OC[C@@H]3n2nnnc2Oc2ccc(-n3cncn3)cc2)cc1	≥ 100
c1ccc(CCCc2noc(-c3ccc(N4CCCNCC4)nc3)n2)cc1	≥ 100
Cc1cccc2ncc(-c3cccc(NC4CNC4)n3)n12	≥ 100
O=C(NCCc1ccc(O)c(O)c1)C12CC3CC(CC(C3)C1)C2	≥ 100
COc1ccc(-c2ccc(Cn3ccnc3)cn2)c2ccc(C)nc12	≥ 100
N#C/C(=C\c1ccc(O)c(O)c1)C(=O)NCCCCc1ccccc1	≥ 100
O=C(COc1ccccc1)Nc1ccc([C@@H](O)[C@H]2COCC(=O)N2Cc2ccc(C(F)(F)F)cc2)cc1	≥ 100
CC(C)NCC(O)COc1cccc2c1N(C(=O)c1cccnc1)CCC2 (centres unmarked)	≥ 100
COc1cc2c3c(c1)C1(C(=O)N3C(C)(C)C=C2C)C(C#N)=C(N)Oc2cc(O)ccc21 (centres unmarked)	≥ 100
COc1ccc(OCC(O)CN2CCC(O)CC2)c(CN(C)Cc2csc(C)n2)c1 (centres unmarked)	≥ 100

Series 4
Target: RAF proto-oncogene serine/threonine-protein kinase (RAF1, Homo sapiens, UniProt P04049)
UniProt P04049, sequence (whole entry, looked up): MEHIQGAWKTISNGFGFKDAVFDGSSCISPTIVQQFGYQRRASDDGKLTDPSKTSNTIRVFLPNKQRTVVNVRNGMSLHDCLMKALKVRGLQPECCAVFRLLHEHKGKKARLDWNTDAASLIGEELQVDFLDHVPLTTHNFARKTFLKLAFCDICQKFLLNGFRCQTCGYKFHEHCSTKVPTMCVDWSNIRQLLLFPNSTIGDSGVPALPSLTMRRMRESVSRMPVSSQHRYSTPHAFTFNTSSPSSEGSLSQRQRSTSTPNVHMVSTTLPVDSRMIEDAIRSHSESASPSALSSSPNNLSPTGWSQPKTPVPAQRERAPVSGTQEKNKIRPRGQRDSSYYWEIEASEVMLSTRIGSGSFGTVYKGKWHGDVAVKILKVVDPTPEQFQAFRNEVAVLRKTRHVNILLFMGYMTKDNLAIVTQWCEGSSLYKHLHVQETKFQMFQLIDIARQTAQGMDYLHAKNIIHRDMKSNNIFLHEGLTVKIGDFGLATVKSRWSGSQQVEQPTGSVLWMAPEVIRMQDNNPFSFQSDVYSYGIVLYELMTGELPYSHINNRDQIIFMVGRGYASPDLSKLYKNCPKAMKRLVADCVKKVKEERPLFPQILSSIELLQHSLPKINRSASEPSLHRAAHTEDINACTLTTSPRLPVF
Observed: enzyme activity
Action: inhibitor
Tested at: 0.5 µM
Reference: control
SMILES	remaining activity
CCCC(=O)Oc1ccc2[nH]c(C(=O)c3cc4ccccc4[nH]3)cc2c1	98.7%
CC#CC(=O)Nc1cc2c(Nc3ccc(F)c(Cl)c3)ncnc2cn1	85.6%
Nc1nccc(-c2c(-c3ccc(F)cc3)ncn2C2CCNCC2)n1	90.9%
Oc1ccc(Nc2nc(-c3ccc(Cl)cc3)cs2)cc1	95.7%
CC(C)(C)n1nc(Cc2cccc3ccccc23)c2c(N)ncnc21	90.6%
Cc1ccc(NC2=CC(=O)c3sc(C)nc3C2=O)cc1	90.5%
Cc1cncc2cccc(S(=O)(=O)N3CCCN(C(=O)CN)C[C@@H]3C)c12	95.1%
CCc1[nH]c(-c2ccc(OC)cc2)nc1-c1ccncc1	93.4%
CC[n+]1c(/C=C/N(C)c2ccccc2)n(-c2ccccc2)c2ccc(-c3nc4ccccc4s3)cc21	96.8%
O=C1Cc2c([nH]c3ccc([N+](=O)[O-])cc23)-c2ccccc2N1	114%
Nc1nc(Nc2ccc(S(N)(=O)=O)cc2)nn1C(=O)c1c(F)cccc1F	95.7%
O=C1NC(=O)C(c2c[nH]c3ccccc23)=C1c1c[nH]c2ccccc12	122%
CSc1nc(-c2ccnc(N[C@@H](C)c3ccccc3)c2)c(-c2ccc(F)cc2)[nH]1 (racemic)	88.9%
COc1ccc(S(=O)(=O)N(CCO)c2ccccc2CN(C)CC=Cc2ccc(Cl)cc2)cc1	93.7%
COc1cc(Nc2c(C#N)cnc3cc(OCCCN4CCN(C)CC4)c(OC)cc23)c(Cl)cc1Cl	105%
N#CC(=C(N)Sc1ccc(N)cc1)c1ccccc1C(F)(F)F	103%
Cc1cc(Nc2nc(-c3ccccc3)nc3ccccc23)n[nH]1	99.8%
CC(=O)c1ccc(N2CCOCC2)cc1O	96.2%
Fc1ccc(-c2nc3n(c2-c2ccncc2)CCS3)cc1	91.1%
Nc1ncnc2c1cnn2-c1ccccc1	95.4%
O=S(=O)(NCCNC/C=C/c1ccc(Br)cc1)c1cccc2cnccc12	96.4%
NC(=O)c1ccc(N(C(N)=O)c2c(F)cccc2F)nc1-c1ccc(F)cc1F	97.5%

Some of these lines once more (series 2):
Structure (SMILES)	fluorescence polarization change [mP]
COC(=O)[C@H]1[C@@H](O)[C@@]2(O)c3c(F)cccc3N(C)[C@@]2(c2ccc(OC)cc2)[C@@H]1c1ccccc1	3.6
CONC(=O)[C@H]1[C@@H](O)[C@@]2(O)c3c(OC)cc(O)cc3O[C@@]2(c2ccc(Br)cc2)[C@@H]1c1ccccc1	67.5
C#CCCC1(CCOc2ccc([C@@H]3[C@@H](C(=O)c4ccco4)[C@@H](O)[C@@]4(O)c5c(OC)cc(OC)cc5O[C@@]34c3ccc(OC)cc3)cc2)N=N1	0.9
COC(=O)/C=C/n1c(-c2ccccc2)nc2c(c1=O)[C@@H](c1ccccc1)[C@]1(c3ccc(OC)cc3)Oc3cc(OC)cc(OC)c3[C@]21O	10.5
COc1ccc([C@@]23Oc4cc(OC)cc(OC)c4[C@]2(O)[C@H](O)[C@H](C(=O)c2ccco2)[C@H]3c2ccc(Br)cc2)cc1	6.3
C#CCNC(=O)/C=C/Cn1c(-c2ccccc2)nc2c(c1=O)[C@@H](c1ccccc1)[C@]1(c3ccc(OC)cc3)Oc3cc(OC)cc(OC)c3[C@]21O	23.6
COc1ccc([C@@]23Oc4cc(OC)cc(OC)c4[C@]2(O)c2[nH]nc(O)c2[C@H]3c2ccccc2)cc1	37.1
COC(=O)[C@@H]1[C@@H](c2ccccc2)[C@]2(c3ccc(OC)cc3)Oc3cc(OC)cc(OC)c3[C@@]23NC(c2csc(C)n2)=N[C@@]13O	38.3
COc1ccc([C@@]23Oc4cc(O)cc(OC)c4[C@]2(O)[C@H](O)[C@H](C(=O)c2ccco2)[C@H]3c2ccccc2)cc1	11.2
C#CCOc1nc(-c2ccccc2)nc2c1[C@@H](c1ccccc1)[C@]1(c3ccc(OC)cc3)Oc3cc(OCC(=O)OCC)cc(OC)c3[C@]21OCC(=O)OCC	-5.9
COc1ccc([C@@]23Oc4cc(OC)cc(OC)c4[C@]2(O)[C@H](O)[C@H](C(=O)c2ccco2)[C@H]3c2cccc(OC)c2)cc1	26.1
